Earlier results that unrelated publications cite.
Each line is one published result; not all experiments were run side by side. Values joined by “and” are separate records of one study, mostly repeats; a detail may differ. ± marks the error that the study gave.
Chain of UniProt P30536 (whole entry, looked up): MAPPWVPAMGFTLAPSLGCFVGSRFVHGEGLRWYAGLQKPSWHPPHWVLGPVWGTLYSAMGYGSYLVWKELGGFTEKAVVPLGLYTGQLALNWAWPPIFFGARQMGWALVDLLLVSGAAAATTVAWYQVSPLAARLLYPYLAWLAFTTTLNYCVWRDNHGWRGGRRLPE
Chain of UniProt P00367 (whole entry, unmodified, looked up): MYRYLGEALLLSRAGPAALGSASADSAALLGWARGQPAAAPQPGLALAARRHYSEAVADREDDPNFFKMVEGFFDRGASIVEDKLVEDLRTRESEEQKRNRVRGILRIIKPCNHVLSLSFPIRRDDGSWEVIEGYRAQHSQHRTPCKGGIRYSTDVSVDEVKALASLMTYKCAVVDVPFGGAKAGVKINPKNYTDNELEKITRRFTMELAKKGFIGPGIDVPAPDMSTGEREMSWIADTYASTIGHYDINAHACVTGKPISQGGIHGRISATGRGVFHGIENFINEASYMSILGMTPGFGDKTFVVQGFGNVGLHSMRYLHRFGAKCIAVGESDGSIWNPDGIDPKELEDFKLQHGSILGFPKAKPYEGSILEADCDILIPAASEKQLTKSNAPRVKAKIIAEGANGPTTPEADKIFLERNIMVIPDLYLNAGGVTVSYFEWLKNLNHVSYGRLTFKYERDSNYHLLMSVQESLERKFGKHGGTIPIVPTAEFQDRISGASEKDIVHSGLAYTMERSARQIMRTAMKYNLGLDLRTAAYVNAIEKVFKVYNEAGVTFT
Chain of UniProt P32245 (whole entry, looked up): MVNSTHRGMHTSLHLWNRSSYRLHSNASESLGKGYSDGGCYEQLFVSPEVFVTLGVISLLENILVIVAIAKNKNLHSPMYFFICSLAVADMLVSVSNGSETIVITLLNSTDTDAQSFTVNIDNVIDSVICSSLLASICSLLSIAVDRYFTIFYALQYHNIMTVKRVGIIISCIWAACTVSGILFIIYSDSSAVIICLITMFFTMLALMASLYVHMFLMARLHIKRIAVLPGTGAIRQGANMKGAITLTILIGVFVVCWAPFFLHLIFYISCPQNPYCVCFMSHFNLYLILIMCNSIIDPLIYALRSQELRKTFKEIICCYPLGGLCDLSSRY
Chain of UniProt P9WPN9 (whole entry, looked up): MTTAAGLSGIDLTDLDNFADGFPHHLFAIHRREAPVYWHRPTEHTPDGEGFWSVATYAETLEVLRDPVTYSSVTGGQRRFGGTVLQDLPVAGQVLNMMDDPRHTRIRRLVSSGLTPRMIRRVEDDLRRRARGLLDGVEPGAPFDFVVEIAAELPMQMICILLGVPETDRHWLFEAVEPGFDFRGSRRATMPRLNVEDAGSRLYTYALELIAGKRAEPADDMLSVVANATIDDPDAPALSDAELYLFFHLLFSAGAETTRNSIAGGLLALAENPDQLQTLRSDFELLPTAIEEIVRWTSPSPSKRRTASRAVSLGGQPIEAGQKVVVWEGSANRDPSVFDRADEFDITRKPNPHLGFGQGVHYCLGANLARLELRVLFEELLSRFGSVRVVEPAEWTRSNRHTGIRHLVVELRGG
Chain of UniProt P02730 (whole entry, looked up): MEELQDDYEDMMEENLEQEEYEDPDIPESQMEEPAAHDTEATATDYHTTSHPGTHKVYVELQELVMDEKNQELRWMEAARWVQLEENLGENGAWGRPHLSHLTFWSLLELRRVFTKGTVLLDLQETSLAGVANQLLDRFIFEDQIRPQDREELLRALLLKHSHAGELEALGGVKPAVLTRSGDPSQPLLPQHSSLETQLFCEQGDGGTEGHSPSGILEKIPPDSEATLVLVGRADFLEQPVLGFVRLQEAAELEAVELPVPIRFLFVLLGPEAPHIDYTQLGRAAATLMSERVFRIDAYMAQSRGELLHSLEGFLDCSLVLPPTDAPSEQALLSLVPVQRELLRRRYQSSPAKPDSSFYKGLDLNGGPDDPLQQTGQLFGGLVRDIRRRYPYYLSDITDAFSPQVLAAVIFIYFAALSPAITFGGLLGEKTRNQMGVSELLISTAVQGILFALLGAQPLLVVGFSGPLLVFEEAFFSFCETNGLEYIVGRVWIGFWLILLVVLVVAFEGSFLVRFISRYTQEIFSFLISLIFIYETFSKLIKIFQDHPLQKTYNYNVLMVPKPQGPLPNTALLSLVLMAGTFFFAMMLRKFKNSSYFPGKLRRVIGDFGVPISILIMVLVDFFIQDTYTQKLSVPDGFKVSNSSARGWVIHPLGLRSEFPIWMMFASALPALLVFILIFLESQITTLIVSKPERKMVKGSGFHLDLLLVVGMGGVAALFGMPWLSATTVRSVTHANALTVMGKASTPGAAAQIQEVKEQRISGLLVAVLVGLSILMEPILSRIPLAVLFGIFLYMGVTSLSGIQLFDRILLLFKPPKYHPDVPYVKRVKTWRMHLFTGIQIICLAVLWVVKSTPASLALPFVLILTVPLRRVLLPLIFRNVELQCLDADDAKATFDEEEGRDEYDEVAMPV
Chain of UniProt O35627 (whole entry, looked up): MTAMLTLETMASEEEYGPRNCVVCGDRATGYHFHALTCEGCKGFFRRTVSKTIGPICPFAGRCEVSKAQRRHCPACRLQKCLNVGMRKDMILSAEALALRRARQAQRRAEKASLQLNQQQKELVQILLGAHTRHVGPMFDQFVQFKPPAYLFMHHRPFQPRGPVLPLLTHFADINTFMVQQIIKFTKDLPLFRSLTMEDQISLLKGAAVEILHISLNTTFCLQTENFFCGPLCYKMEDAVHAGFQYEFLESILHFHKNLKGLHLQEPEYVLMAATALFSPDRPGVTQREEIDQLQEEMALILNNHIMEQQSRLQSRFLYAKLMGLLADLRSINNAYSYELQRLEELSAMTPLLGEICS
Chain of UniProt P02920 (whole entry, looked up): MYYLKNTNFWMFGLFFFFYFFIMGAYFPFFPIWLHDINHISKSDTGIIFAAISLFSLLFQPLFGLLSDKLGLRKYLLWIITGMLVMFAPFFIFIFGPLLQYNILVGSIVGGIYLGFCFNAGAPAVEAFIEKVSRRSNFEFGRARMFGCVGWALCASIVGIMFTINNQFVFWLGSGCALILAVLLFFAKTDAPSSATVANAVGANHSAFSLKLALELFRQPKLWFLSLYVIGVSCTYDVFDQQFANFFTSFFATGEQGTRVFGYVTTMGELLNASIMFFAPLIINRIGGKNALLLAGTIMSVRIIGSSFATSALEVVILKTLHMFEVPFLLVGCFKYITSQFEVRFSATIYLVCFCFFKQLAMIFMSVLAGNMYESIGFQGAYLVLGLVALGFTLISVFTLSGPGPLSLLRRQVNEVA

CC(=O)N1CCN(c2ccc(OCC3COC(Cn4ccnc4)(c4ccc(Cl)cc4Cl)O3)cc2)CC1 (stereo not shown)  Kd (cyp126 (Mycobacterium tuberculosis, UniProt P9WPN9); binding): 1.4 µM
O=C1c2ccccc2-c2c1c1ccc([N+](=O)[O-])cc1c(=O)n2CCCN1CCOCC1  GI50 (NCI-60 panel mean; cell growth): 632 ± 29 nM
Nc1ncnc2c1ncn2[C@@H]1O[C@H](COP(=O)(O)OP(=O)(O)O)[C@@H](O)[C@H]1O  Kd (CFTR NBD1; binding, SPR or ITC): 19 ± 1.9 µM
CNC(=O)c1cc(Oc2ccc(NC(=O)Nc3ccc(Cl)c(C(F)(F)F)c3)cc2)ccn1  beating cessation concentration (hiPSC-derived cardiomyocytes; 72 h, tested 0 to 100 µM): 3.7 µM
CC[N+](CC)(CC)CC  Kd (Loligo opalescens; potassium current block; squid axon; internal application): 1000 µM
fibrinogen  Kd (integrin alphaIIb beta3 (active); binding): ~0.1 µM
CC(C)(COP(=O)(O)OP(=O)(O)OC[C@H]1O[C@@H](n2cnc3c(N)ncnc32)[C@H](O)[C@@H]1OP(=O)(O)O)[C@@H](O)C(=O)NCCC(=O)NCCSCC(=O)c1ccc(O)cc1  Kd (thioesterase (wild type); fluorescence quenching): 0.33 µM
C=CC1=C(C)c2cc3[nH]c(cc4nc(cc5[nH]c(cc1n2)c(C)c5CCC(=O)O)C(CCC(=O)O)=C4C)c(C)c3C=C  Kd (TSPO Rhodobacter sphaeroides wild type; purified protein): 0.3 ± 0.01 µM
CCCCNc1ccc(C(=O)OCCN(C)C)cc1  Kd (CNG channel; binding; closed channel state): 0.22 µM
O=P(O)(O)OC[C@H]1O[C@H](OP(=O)(O)OP(=O)(O)O)[C@H](O)[C@@H]1O  Km (Trypanosoma cruzi HGPRT isoform A; enzyme activity, substrate; GMP formation, together with: guanine 70 µM): 32 ± 5 µM
Nc1nc2c(nc(Br)n2[C@@H]2O[C@@H]3COP(=O)(O)O[C@H]3[C@H]2O)c(=O)[nH]1  Km or Ki (PDE1B; cyclic nucleotide hydrolysis, substrate or inhibitor, isothermal titration calorimetry): 4.48 µM
CSCC[C@H](NC(=O)[C@H](CCC(=O)O)NC(=O)[C@@H](N)CS)C(=O)N[C@@H](CO)C(=O)N[C@@H](Cc1c[nH]cn1)C(=O)N[C@@H](CCCCN)C(=O)N[C@@H](CCCCN)C(=O)N[C@@H](CO)C(=O)N[C@@H](Cc1ccccc1)C(=O)N[C@@H](Cc1ccccc1)C(=O)N[C@@H](CC(=O)O)C(=O)N[C@@H](CCCCN)C(=O)N[C@@H](CCCCN)C(=O)N[C@@H](CCCNC(=N)N)C(=O)N[C@@H](CO)C(=O)N[C@@H](CCC(=O)O)C(=O)N[C@@H](CCCNC(=N)N)C(=O)O  Kd (Rev1 C-terminal domain; binding, tryptophan fluorescence titration): ~0.3 µM
O=P(O)(O)O[C@@H]1[C@H](O)[C@H](O)[C@@H](OP(=O)(O)O)[C@H](OP(=O)(O)O)[C@H]1O  Kd (IP3R1 N-terminal domain residues 1-604; binding, FP competition; 4 °C, Ca2+-free): 0.089 ± 0.007 µM
CC[C@H](C)[C@H](NC(=O)[C@H](CCCCN)NC(=O)[C@H](Cc1c[nH]cn1)NC(=O)[C@@H](N)CCCNC(=N)N)C(=O)N[C@@H](CC(C)C)C(=O)N[C@@H](Cc1c[nH]cn1)C(=O)N[C@@H](CCCNC(=N)N)C(=O)N[C@@H](CC(C)C)C(=O)N[C@@H](CC(C)C)C(=O)N[C@@H](CCC(N)=O)C(=O)N[C@@H](CCC(=O)O)C(=O)NCC(=O)N[C@@H](CO)C(=O)O  binding stoichiometry (Nuclear receptor subfamily 1 group I member 3, with RXR (Mus musculus, UniProt O35627); ITC; concentration not given, pH 7.2, 25 °C, together with: TCPOBOP): 0.98 ± 0.07
Nc1nc2c(ncn2[C@@H]2O[C@@H]3COP(=O)(O)O[C@H]3[C@H]2O)c(=O)[nH]1  Km or Ki (PDE1C; cyclic nucleotide hydrolysis, substrate or inhibitor, isothermal titration calorimetry): 4.64 µM
Nc1nc2c(ncn2[C@@H]2O[C@H](COP(=O)(O)OP(=O)(O)OP(=O)(O)O)[C@@H](O)[C@H]2O)c(=O)[nH]1  IC50 (GLUD1 (Homo sapiens, UniProt P00367, S501P); enzyme activity, allosteric inhibitor; mutant enzyme, reductive amination): 3.1 µM
Cc1cn([C@H]2C[C@H](O)[C@@H](COP(=O)(O)OP(=O)(O)OP(=O)(O)O)O2)c(=O)[nH]c1=O  Kd (bacteriophage T4 DNA polymerase exo-; nucleotide binding; opposite template 2-aminopurine, together with: chain-terminated DNA, Mg2+): ~31 µM
N=C(N)NCCC[C@H](NC(=O)[C@@H](Cc1ccccc1)NC(=O)[C@H](Cc1c[nH]cn1)NC(=O)COCC(=O)NCCCOCCOCCOCCCNC(=O)CN(CCN(CCN(CC(=O)O)CC(=O)O)CC(=O)O)CC(=O)O)C(=O)N[C@@H](Cc1c[nH]c2ccccc12)C(N)=O  Kd (MC4R (Homo sapiens, UniProt P32245); binding; HEK293 transiently expressing MC4R; together with: MSH blocking non-specific binding): 9.1 µM
O=P(O)(O)OC[C@@H](O)[C@@H](O)CO  Kd (orotidine 5'-phosphate decarboxylase wild type; activator; pH 7.0, 25 °C, ionic strength 0.15 (NaCl), together with: FO): 30000 µM
CC(=O)O[C@H]1C(=O)[C@@]2(C)[C@H]([C@H](OC(=O)c3ccccc3)[C@]3(O)C[C@H](OC(=O)[C@H](O)[C@@H](NC(=O)c4ccccc4)c4ccccc4)C(C)=C1C3(C)C)[C@]1(OC(C)=O)CO[C@@H]1C[C@@H]2O  Kd (tubulin; competition binding; cross-linked microtubules; together with: Flutax-2): 0.027 µM
Nc1ncnc2c1ncn2[C@H]1C[C@H](O)[C@@H](COP(=O)(O)NP(=O)(O)OP(=O)(O)O)O1  Kd (DNA polymerase beta; nucleotide insertion; opposite templating guanosine): 210 ± 50 µM
KEKRIKELELLLMSTENELKGQQVL (c-Myb(291-315); sequence looked up)  Kd (KIX domain; binding, isothermal titration calorimetry; pH 7.0, 27 °C): 10 ± 2 µM
HWKHLHNTKTFL  Kd (MMP-14; binding; peptide; apparent Kd): 0.0474 µM
NC(=O)C1=CN([C@@H]2O[C@H](COP(=O)(O)OP(=O)(O)OC[C@H]3O[C@@H](n4cnc5c(N)ncnc54)[C@H](OP(=O)(O)O)[C@@H]3O)[C@@H](O)[C@H]2O)C=CC1  Kd (human AKR1D1 wild type; binding, fluorescence titration): 0.043 ± 0.016 µM
Cc1c(OCC(F)(F)F)ccnc1C[S+]([O-])c1nc2ccccc2[nH]1 (stereo not shown)  Kd (paired helical tau filaments; radioligand binding): 0.83 ± 0.18 µM
COc1ccccc1CN(C(C)=O)c1cnccc1Oc1ccccc1  Ki (TSPO (Homo sapiens, UniProt P30536); human brain tissue; low-affinity binders): ~200 nM and 188 nM
CC(C)COCC(CN(Cc1ccccc1)c1ccccc1)N1CCCC1 (stereo not shown)  Kd (cardiac troponin C N-domain, calcium-saturated; binding; no switch peptide): 20 µM
O=[N+]([O-])c1ccc(O[C@H]2O[C@H](CO)[C@H](O)[C@H](O)[C@H]2O)cc1  Kd (lacY (Escherichia coli, UniProt P02920); ligand, stopped-flow FRET; DDM-solubilised protein): 65 µM
COc1cc2cc(c1Cl)N(C)C(=O)C[C@H](OC(=O)[C@H](C)N(C)C(C)=O)[C@]1(C)O[C@H]1[C@H](C)[C@@H]1C[C@@](O)(NC(=O)O1)[C@H](OC)/C=C/C=C(\C)C2  Kd (tubulin; vinblastine site): ~1 µM
Nc1nc2c(ncn2[C@@H]2O[C@H](COP(=O)(O)OP(=O)(O)OP(=O)(O)O)[C@@H](O)[C@H]2O)c(=O)[nH]1  Kd (H-Ras; binding): 1.67e-05 µM
C=CCOC(=O)/N=c1\oc2cc(N(CC)CC)ccc2cc1-c1nc2ccccc2s1  Kd (Keap1-Nrf2 interaction; binding): 5.1 µM
Nc1ncnc2c1ncn2[C@@H]1O[C@H](CO)[C@@H](O[C@H]2O[C@H](CO)[C@@H](OP(=O)(O)O)[C@H](OP(=O)(O)O)[C@H]2O)[C@H]1OP(=O)(O)O  Kd (IP3 receptor): 0.00073 µM
[I-].[K+]  Kd (SLC4A1 (Homo sapiens, UniProt P02730); binding; citrate replacing chloride; external site): 2500 to 2800 µM
O=C(O)CN(CC(=O)O)CC(=O)O  Kd (hexahistidine tag; binding): ~10 µM
